Results collected from several papers.
Each numbered part is a random draw from the data of one study; scales do not carry over between parts. Several values in a cell are separate wells, animals, samples, runs or records.
Sequence of UniProt P00519 (whole entry, looked up): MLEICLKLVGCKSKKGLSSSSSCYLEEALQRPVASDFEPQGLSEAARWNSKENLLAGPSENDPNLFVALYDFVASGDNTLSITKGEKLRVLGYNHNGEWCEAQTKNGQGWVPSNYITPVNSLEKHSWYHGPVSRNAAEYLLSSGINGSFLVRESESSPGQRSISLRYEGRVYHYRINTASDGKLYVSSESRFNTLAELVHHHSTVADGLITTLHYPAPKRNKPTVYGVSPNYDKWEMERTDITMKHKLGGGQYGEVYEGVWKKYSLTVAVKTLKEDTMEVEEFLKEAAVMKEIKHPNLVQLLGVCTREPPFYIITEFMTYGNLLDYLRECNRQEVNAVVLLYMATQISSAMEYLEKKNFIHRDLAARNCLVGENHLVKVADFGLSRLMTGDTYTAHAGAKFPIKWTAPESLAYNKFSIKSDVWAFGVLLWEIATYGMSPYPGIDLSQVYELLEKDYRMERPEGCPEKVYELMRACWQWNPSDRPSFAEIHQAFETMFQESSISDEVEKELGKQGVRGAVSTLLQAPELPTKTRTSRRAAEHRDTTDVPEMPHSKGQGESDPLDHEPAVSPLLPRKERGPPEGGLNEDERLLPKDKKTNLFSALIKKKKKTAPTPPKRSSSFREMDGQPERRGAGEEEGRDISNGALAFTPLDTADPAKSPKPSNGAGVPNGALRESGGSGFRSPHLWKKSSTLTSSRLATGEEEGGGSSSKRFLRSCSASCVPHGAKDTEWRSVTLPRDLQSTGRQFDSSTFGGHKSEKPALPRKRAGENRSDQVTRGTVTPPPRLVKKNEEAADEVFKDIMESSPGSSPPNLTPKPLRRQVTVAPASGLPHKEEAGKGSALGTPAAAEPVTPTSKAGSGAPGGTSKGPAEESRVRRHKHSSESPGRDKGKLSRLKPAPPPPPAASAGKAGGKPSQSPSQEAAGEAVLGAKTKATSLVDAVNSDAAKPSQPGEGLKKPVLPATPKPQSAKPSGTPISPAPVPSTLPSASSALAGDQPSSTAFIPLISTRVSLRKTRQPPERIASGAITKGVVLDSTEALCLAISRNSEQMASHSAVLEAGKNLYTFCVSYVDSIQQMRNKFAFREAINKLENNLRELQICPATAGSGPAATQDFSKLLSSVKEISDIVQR
Sequence of UniProt P51813 (whole entry, looked up): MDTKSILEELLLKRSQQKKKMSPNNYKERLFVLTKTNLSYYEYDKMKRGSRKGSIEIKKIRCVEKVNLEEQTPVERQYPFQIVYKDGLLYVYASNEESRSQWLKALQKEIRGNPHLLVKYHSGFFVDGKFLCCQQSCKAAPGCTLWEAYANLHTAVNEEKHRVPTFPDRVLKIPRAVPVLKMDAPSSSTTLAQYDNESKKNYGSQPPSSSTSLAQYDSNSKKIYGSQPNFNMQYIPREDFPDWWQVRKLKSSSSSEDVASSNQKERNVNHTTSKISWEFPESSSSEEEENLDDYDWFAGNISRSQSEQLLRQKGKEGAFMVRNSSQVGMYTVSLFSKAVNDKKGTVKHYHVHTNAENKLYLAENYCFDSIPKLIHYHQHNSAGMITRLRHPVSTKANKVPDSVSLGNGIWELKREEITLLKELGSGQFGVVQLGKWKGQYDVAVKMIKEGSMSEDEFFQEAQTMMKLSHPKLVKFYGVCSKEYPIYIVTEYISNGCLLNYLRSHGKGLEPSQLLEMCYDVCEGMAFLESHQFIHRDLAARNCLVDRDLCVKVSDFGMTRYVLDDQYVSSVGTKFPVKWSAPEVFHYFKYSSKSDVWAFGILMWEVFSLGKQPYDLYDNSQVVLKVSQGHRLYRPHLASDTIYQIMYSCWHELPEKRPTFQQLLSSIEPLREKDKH
Sequence of UniProt P10721 (whole entry, unmodified, looked up): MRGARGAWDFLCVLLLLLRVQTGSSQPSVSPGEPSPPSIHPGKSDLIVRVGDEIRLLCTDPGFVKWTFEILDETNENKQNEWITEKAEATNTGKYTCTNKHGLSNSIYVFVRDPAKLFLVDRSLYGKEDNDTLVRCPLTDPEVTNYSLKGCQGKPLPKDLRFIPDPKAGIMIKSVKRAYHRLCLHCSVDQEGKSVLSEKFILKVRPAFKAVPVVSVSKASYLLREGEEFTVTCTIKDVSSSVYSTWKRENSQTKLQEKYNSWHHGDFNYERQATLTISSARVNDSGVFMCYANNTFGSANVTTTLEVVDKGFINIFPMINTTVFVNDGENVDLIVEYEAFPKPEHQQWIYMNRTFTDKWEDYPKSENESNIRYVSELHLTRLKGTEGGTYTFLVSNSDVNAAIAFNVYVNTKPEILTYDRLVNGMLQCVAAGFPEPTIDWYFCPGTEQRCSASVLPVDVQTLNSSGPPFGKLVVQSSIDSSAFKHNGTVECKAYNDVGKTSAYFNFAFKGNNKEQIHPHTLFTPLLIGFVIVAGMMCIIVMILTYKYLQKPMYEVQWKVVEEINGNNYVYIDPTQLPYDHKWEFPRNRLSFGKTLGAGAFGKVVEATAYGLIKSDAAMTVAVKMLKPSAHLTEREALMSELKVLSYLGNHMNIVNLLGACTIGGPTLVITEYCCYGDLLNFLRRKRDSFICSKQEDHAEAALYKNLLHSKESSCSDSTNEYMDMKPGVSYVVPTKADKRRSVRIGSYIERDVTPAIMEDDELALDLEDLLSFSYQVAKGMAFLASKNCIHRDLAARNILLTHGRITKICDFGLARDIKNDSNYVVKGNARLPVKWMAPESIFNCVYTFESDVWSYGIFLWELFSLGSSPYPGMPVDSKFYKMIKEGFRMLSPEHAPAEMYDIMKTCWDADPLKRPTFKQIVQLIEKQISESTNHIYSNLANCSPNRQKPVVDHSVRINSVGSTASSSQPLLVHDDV
Sequence of UniProt P42681 (whole entry, looked up): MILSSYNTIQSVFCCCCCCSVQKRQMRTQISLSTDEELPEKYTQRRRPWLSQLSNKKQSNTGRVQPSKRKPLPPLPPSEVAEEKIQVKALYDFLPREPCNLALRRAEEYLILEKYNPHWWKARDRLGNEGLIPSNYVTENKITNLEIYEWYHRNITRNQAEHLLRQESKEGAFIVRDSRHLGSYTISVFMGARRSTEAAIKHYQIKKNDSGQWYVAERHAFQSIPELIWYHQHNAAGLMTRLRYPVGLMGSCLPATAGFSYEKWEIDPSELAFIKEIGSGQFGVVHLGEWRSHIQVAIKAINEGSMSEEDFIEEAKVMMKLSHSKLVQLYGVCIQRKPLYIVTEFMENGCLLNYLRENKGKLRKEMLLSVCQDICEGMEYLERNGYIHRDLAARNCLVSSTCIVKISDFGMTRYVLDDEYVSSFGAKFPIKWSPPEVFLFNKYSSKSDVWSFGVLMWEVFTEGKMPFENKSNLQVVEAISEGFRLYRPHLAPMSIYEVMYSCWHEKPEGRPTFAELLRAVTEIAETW
Sequence of UniProt P48729 (whole entry, looked up): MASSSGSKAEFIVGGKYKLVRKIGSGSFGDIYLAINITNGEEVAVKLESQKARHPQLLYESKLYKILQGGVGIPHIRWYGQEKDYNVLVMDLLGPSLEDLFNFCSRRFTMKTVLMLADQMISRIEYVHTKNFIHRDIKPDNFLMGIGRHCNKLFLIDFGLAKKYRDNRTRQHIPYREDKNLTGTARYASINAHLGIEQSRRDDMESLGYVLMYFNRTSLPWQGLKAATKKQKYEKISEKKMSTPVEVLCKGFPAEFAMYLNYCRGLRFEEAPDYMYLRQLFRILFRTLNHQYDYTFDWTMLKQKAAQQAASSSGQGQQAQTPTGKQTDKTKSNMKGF
Sequence of UniProt P78362 (whole entry, looked up): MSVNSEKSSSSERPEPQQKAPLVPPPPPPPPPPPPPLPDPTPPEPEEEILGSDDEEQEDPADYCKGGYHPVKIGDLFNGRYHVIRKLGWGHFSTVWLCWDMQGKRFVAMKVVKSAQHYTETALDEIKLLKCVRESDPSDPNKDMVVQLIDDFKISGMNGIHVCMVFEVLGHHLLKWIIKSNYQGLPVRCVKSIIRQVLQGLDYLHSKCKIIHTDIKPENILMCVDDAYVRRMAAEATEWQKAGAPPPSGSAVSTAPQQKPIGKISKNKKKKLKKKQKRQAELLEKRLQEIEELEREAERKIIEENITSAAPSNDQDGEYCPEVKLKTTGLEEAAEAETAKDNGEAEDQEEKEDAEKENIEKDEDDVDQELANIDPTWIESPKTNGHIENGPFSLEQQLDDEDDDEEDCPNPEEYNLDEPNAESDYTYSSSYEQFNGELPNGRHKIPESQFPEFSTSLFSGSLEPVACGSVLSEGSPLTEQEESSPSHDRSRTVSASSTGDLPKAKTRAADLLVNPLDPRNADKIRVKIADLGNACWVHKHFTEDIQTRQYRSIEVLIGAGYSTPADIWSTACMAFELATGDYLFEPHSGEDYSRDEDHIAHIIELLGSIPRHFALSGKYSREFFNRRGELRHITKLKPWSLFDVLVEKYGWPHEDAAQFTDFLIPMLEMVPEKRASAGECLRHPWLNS
Sequence of UniProt Q15349 (whole entry, looked up): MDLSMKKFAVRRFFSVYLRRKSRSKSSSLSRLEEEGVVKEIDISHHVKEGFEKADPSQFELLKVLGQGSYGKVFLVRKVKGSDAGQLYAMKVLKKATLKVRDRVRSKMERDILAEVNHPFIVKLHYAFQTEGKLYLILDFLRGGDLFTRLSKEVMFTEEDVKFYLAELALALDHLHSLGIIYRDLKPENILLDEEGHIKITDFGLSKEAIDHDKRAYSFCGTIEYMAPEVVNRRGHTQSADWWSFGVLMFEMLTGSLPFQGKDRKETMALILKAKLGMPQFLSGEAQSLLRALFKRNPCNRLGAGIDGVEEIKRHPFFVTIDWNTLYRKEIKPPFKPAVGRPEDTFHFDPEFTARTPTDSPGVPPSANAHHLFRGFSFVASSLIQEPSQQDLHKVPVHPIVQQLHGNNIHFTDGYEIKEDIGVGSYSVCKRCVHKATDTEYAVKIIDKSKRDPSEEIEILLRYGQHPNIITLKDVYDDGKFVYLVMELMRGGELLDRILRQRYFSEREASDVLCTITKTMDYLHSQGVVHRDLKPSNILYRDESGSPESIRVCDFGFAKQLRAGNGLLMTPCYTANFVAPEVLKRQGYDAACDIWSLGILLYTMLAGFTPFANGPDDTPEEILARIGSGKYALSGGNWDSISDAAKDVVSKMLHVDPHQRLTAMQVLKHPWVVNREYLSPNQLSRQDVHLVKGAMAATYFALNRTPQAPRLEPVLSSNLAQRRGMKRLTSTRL

Sample 1
Organism: Sarcocystis neurona
Read-out: parasite growth
Concentration: 10 µM
Notes: secondary screen
Structure (SMILES) | inhibition [%]
Cc1onc(-c2c(Cl)cccc2Cl)c1C(=O)N[C@@H]1C(=O)N2[C@@H]1SC(C)(C)[C@@H]2C(=O)O | -31.1
Cc1ccc(S(=O)(=O)NC(=O)NN2CCCCCC2)cc1 | -17.5
Nc1cc(N2CCCCC2)nc(N)[n+]1[O-] | -31.6

Sample 2
SMILES: CN([C@@H]1CCc2c(CC(=O)O)c3cc(S(C)(=O)=O)ccc3n2C1)S(=O)(=O)c1ccc(F)cc1
Read-out: cell-free assay
Method: competition with immobilised ligand
Concentration: 1 µM
target | remaining binding
Mast/stem cell growth factor receptor Kit (KIT, Homo sapiens, UniProt P10721, L576P) | 89%
Casein kinase I isoform alpha (CSNK1A1, Homo sapiens, UniProt P48729) | 100%
Serine/threonine-protein kinase N1 (PKN1, Homo sapiens, UniProt Q16512) | 90%
Epithelial discoidin domain-containing receptor 1 (DDR1, Homo sapiens, UniProt Q08345) | 100%
Serine/threonine-protein kinase DCLK3 (DCLK3, Homo sapiens, UniProt Q9C098) | 71%
Rho-associated protein kinase 1 (ROCK1, Homo sapiens, UniProt Q13464) | 6%
Cytoplasmic tyrosine-protein kinase BMX (BMX, Homo sapiens, UniProt P51813) | 100%
Ribosomal protein S6 kinase alpha-2, C-terminal kinase domain (RPS6KA2, Homo sapiens, UniProt Q15349) | 100%
Epidermal growth factor receptor (EGFR, Homo sapiens, UniProt P00533, del752-759) | 100%
RAC-alpha serine/threonine-protein kinase (AKT1, Homo sapiens, UniProt P31749) | 100%
SNF-related serine/threonine-protein kinase (SNRK, Homo sapiens, UniProt Q9NRH2) | 100%
Cyclin-dependent kinase-like 1 (CDKL1, Homo sapiens, UniProt Q00532) | 100%
Tyrosine-protein kinase ABL1, non-phosphorylated (ABL1, Homo sapiens, UniProt P00519) | 95%
Myosin light chain kinase, smooth muscle (MYLK, Homo sapiens, UniProt Q15746) | 94%
Non-receptor tyrosine-protein kinase TNK1 (TNK1, Homo sapiens, UniProt Q13470) | 91%
SRSF protein kinase 2 (SRPK2, Homo sapiens, UniProt P78362) | 100%
Tyrosine-protein kinase TXK (TXK, Homo sapiens, UniProt P42681) | 74%

Sample 3
Cell line: mouse MPNST tumor cells
Method: high-content nuclear imaging
Refers to: cell number
Concentration: 10 µM
Time: 12 h
Notes: mean of 2 replicates
Reference: plate mean
Reading: higher = more cells
Compound | nuclei count [z-score]
O=C(c1cc(C2CC2)on1)N(C1CCCCC1)C1CCCCC1 | 0.332
Cc1cc(C(=O)Nc2cccc(C(=O)Nc3cccc(C(F)(F)F)c3)c2)on1 | 1.02
O=C(Nc1ccc(CN2CCOCC2)cc1)c1ccc(-c2cccc(Cl)c2)o1 | 4.64

Sample 4
Host: human
Sample: microsomes or S9
Concentration: 2 µM
Time: 0.5 h
SMILES | remaining compound [%]
Cc1ccccc1-c1nc2ccccc2cc1Cn1nc(NCCCO)c2c(N)ncnc21 | 2.23
CN(C(=O)CN1C(=O)COc2cc(Cl)c(Cl)cc21)C(CN1CCCC1)c1ccc(Br)cc1 (stereo not shown) | > 100
O=C1CCc2cc3oc(-c4ccc(F)cc4)nc3cc21 | > 99

Sample 5
Target: RING finger protein unkempt homolog, zinc fingers 1-6, GST-SBP tag (UNK, Homo sapiens, UniProt Q9C0B0, residues 30-357)
Method: RNA Bind-n-Seq
Molecule type: RNA
Sample: in vitro
Concentration: not given
Notes: RNA with constant flanks, human and mouse sites, ends assumed
Reference: input RNA pool
Reading: higher = stronger binding
Constant ends, left off below: GGGAGUUCUACAGUCCGACGAUC … CAACAGAGGAUUGAGCAUCA
Residues (chain): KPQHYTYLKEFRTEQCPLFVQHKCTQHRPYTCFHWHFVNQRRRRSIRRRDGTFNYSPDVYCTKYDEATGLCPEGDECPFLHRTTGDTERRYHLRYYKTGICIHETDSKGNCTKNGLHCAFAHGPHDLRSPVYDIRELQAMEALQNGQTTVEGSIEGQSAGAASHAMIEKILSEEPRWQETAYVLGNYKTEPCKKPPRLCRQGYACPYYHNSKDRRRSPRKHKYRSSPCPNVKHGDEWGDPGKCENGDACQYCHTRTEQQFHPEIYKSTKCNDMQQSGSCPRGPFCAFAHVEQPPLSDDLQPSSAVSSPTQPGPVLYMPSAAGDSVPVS
Sequence | bound/input enrichment
GGGCUAACCUUUAUUAAACAGAUCGCAUAUUAUGAUCUUGCUGCAGCCACAGUGCAGCUCCACAUUAACUCUACAGACCAAACCAUUUGUAUCUGGCAUCACUUACUAACACACGACAUG | 0.833 ratio
CACUCCCACGGUGGAGGGGACAGCAUGAUGAUGAUGCCUAUGACCUUCUACUUUGACUUUAAGAAUGUGAAUCUAUUGUUUUCCGGUUUGGUAAUCAAUACACCUGGAGAAAUGGCUGGA | 0.114 ratio
CCAGAAGCUGGGAACACACUGCGUCGUUGGCGCUGCCACGUACAGAGAUUCUUCUACCGUAUCUAUGCCACCCUACGCAUCGAGGAGCUUUUCAGCAUCAUCCGAGACUUUCCAGACUCC | 0.181 ratio
GGACCACAGGGGGGUCCUGUUCUGAACACAGGCCACCCACUGGGUGUGAACUCGGAUCCCUUCCUUAUGGCGGCCGGUUCUCUUGGUGGAAAUCUGACCCCAUUUCCAAGGAACCCAUCU | 0.0406 ratio
AUGGUGGCCUGCAGCGGCCAAGAAGCCAAAAAAAAUUUUUUUUUUUUCAGAUACUGUGCUUGAUUUUUGGAGAGGGGAGAGGUGGAAAUUCCUAAAUGGCUAAUGCACUGUUCCCUCCAG | 0.229 ratio
GUGGAGUGCUGCCAAGGGGACUGGUGUAACAGGAACAUCACGGCCCAGCUGCCCACUAAAGGAAAAUCCUUCCCUGGAACACAGAAUUUCCACUUGGAGGUUGGCCUCAUUAUUCUCUCU | 0.18 ratio
CGGAAUGAAGUUGUUGGUUUAAUUUUCCGUUUGACAAUAUUUGGUGCAGUGACAUACUUUACUAUCAAAUGGAUGGUAGAUGCAAUUGAUCCAACCAGAAAGCAAAAAGUAGAAGCUCAG | 0.231 ratio
AAUACAGUUUUUCAUUCUGUUCUUGCUGGGCUAGUGUGUGGUCUUGGAACAUGGUAUUUGCUCCCAAACCGAGUAACCUUGCUGUAUGGCAGCCCUGGGGCGACUGCUGUGCUCUUUGUG | 0.345 ratio

Further values, each from its own experiment
Structure (SMILES) | tested on | system | setting | endpoint | result
COc1cc(S(=O)(=O)O)ccc1O | A-375 | – | 100 µM, 36 h | viability | 101% and 145%
CC(C)n1cnc(-c2ccc(F)cc2)c1-c1ncc(C(=O)Nc2ccc(N3CCN(C)CC3)cc2)[nH]1 | – | human, idiopathic pulmonary fibrosis | 60 mg once daily, trial, treatment-emergent | grade 5 soft tissue infection | 0%
O=C(O)CCCN1CCC(O[C@@H](c2ccc(Cl)cc2)c2ccccn2)CC1 | A-375 | – | 100 µM, 60 h | viability | 76.4%

Excerpt of the above (sample 2):
target | remaining binding
Ribosomal protein S6 kinase alpha-2, C-terminal kinase domain (RPS6KA2, Homo sapiens, UniProt Q15349) | 100%
Epidermal growth factor receptor (EGFR, Homo sapiens, UniProt P00533, del752-759) | 100%
Serine/threonine-protein kinase N1 (PKN1, Homo sapiens, UniProt Q16512) | 90%
Tyrosine-protein kinase TXK (TXK, Homo sapiens, UniProt P42681) | 74%
Cyclin-dependent kinase-like 1 (CDKL1, Homo sapiens, UniProt Q00532) | 100%
Myosin light chain kinase, smooth muscle (MYLK, Homo sapiens, UniProt Q15746) | 94%
